# Measured values collected from several papers.
# Protocols differ between the studies behind these lines. Numbers after ± are the reported error.
Compound,target or system,assay,system,setting,scale,measurement,value
COC1CN([C@H]2CC[C@H]([C@@]3(C)Oc4c(Cl)cc(C(=O)NCc5c(SC)cc(C)[nH]c5=O)c(C)c4O3)CC2)C1,,"RNA-seq, item: MPZL2 mouse homolog","mouse, HT-1376 xenograft, whole blood",dose not given,reference: vehicle,log2 fold change,3.93
Cn1ncc2cc(-c3cncc(Cl)c3N3CCC4(CCNC4=O)CC3)ccc21,LS174T,"gene expression, microarray, item: CCL20 mRNA",,"concentration not given, 4 h",reference: untreated cells,log2 fold change,1.46
O=C(N/N=C/c1ccc2c(ccc[n+]2Cc2ccccc2)c1)c1ccc2ccc3ccc(C(=O)N/N=C/c4ccc5c(ccc[n+]5Cc5ccccc5)c4)nc3c2n1,telomeric G4 DNA hybrid-2,FRET melting,,"1 µM, DNA 0.2 µM",,ΔTm,30.8 ± 0.6 °C
COCCOCCOCCNC(=O)Cc1cc(CC(=O)N[C@H]2C[C@H]3C(=O)Nc4cc(OCCOCCOCCOC)cc(n4)C(=O)N4CCC[C@H]4C(=O)Nc4cc(OCCOCCOCCOC)cc(n4)C(=O)N4CCC[C@H]4C(=O)Nc4cc(OCCOCCOCCOC)cc(n4)C(=O)N3C2)cc(CC(=O)N[C@H]2C[C@H]3C(=O)Nc4cc(OCCOCCOCCOC)cc(n4)C(=O)N4CCC[C@H]4C(=O)Nc4cc(OCCOCCOCCOC)cc(n4)C(=O)N4CCC[C@H]4C(=O)Nc4cc(OCCOCCOCCOC)cc(n4)C(=O)N3C2)c1,,"anion binding, ITC",water,"298 K, together with: sodium bromide",,ΔH,3.6 ± 0.1 kJ mol^–1
CC(=O)[O-].O.O.O.O.[Mn+2].[O-]c1ccc(Br)cc1C=NCCN1CCOCC1,,FRAP,,160 µM,,ferric reducing power,31.6%
C[n+]1ccc(/C=N/NC(=O)c2ccc3ccc4ccc(C(=O)N/N=C/c5cc[n+](C)c6ccccc56)nc4c3n2)c2ccccc21,telomeric G4 DNA hybrid-2,FRET melting,,"1 µM, DNA 0.2 µM",,ΔTm,29.3 ± 0.9 °C
N=C(N)NCCC[C@@H]1NC(=O)[C@H](CCCNC(=N)N)NC(=O)[C@@H](C(c2ccccc2)c2ccccc2)NC(=O)[C@H](Cc2c[nH]c3ccccc23)NC(=O)[C@@H](C(c2ccccc2)c2ccccc2)NC(=O)[C@@H](CCCNC(=N)N)NC(=O)[C@@H](CCCNC(=N)N)NC1=O,Aspergillus fumigatus,XTT,Af 293,"MIC, 24 h, pre-formed biofilm",,biofilm reduction,35 to 38%
CC(C)(C)c1cc(-c2ccc3cccnc3n2)nc(-c2ccc3cccnc3n2)c1.[Cl-].[Cl-].[Ru+2].c1cnc2c(c1)ccc1cccnc12,B16-F10,resazurin,,"together with: light 733 nm, 100 J/cm2",reference: dark EC50 over light EC50,phototoxicity index,1
CC(C)c1ccc(N(C)c2ccc3c(c2)OCC[C@H]3CNc2cnccc2C(=O)O)cc1,SW837,"cell growth or viability, ATP luminescence",,7 days,,IC50,≥ 10000 nM
C[n+]1ccc(/C=N/NC(=O)N/N=C/c2cc[n+](C)cc2)cc1,telomeric G4 DNA hybrid-2,FRET melting,,"1 µM, DNA 0.2 µM",,ΔTm,2.7 ± 3 °C
C=C(NC(=O)c1csc(-c2nc3c(cc2O)-c2nc(cs2)C(=O)NC(C(C)O)C(=O)NC(=C(C)OC)c2nc(cs2)C(=O)NC2c4nc(cs4)C(=O)NC(COC(=O)c4c5c6c(cccc6n4O)COC(=O)C(OC4CC(C)(O)C(N(C)C)C(C)O4)C2OC5)c2nc-3cs2)n1)C(N)=O (stereo not shown),Streptococcus pneumoniae,,"-25, immunocompromised mice, lung infection, lung","2 mg/kg/day once daily, 24 h post-dose",,bacterial load,4.4 log CFU/g
C=CC(=O)N1[C@@H](c2ccc3c(c2)OCO3)c2[nH]c3ccccc3c2C[C@H]1C(=O)N1CCN(C)CC1,human cyclin E1 N112C-3xFLAG:CDK2,"co-IP with TMT proteomics, item: RPS14",,"concentration not given, P62263",reference: wild type DMSO,relative co-enrichment,99%
COc1cc(O)ccc1CCC(c1ccc(O)cc1)c1cc2c(c(C)c1O)OC(c1ccc(O)cc1)CC2 (mixture of isomers),,,human blood,"0.3 µM, together with: A23187",,LTB4 level,2080 ± 1020 pg/mL
O=C(N/N=C/c1cc[n+](Cc2ccccc2)c2ccccc12)c1ccc2ccc3ccc(C(=O)N/N=C/c4cc[n+](Cc5ccccc5)c5ccccc45)nc3c2n1,telomeric G4 DNA hybrid-2,FRET melting,,"1 µM, DNA 0.2 µM, together with: duplex DNA competitor 10 µM",,ΔTm,29 ± 0.8 °C
CN1CCCNC(=O)c2cccc(c2)C(=O)NCCCN(C)CCCNc2cccc3c2C(=O)c2cccc(c2C3=O)NCCC1,SAS,"RNA-Seq, item: IFRD1 mRNA",,"1 µM, 6 h",reference: untreated cells,log2 fold change,-1.1
C[n+]1ccc(/C=N/NC(=O)c2cccc(C(=O)N/N=C/c3cc[n+](C)c4ccccc34)c2)c2ccccc21,telomeric G4 DNA hybrid-2,FRET melting,,"1 µM, DNA 0.2 µM, together with: duplex DNA competitor 10 µM",,ΔTm,12.8 ± 0.7 °C
C=CC(=O)Nc1cccc(Cn2ncc3cnc(Nc4cnn(CCOC)c4)nc32)c1,RIPK5 human,"binding, KINOMEscan",,100 nM,lower = stronger binding,percent of control,88%
Nc1ncc(-c2cc(-c3cnn(CC(F)(F)F)c3)ncc2F)nc1C(=O)NC1CNCC(F)C1 (stereo not shown),PIKFYVE,KINOMEscan,,1 µM,reference: DMSO control,remaining binding,81%
C[n+]1cc(/C=N/NC(=O)c2ccc3ccc(C(=O)N/N=C/c4cc5ccccc5[n+](C)c4)nc3n2)cc2ccccc21,telomeric G4 DNA hybrid-2,FRET melting,,"1 µM, DNA 0.2 µM, together with: duplex DNA competitor 10 µM",,ΔTm,15.4 ± 0.6 °C
CNS(=O)(=O)Nc1nccc(Cc2c(C)c3ccc(Oc4ncccc4F)cc3oc2=O)c1F,NCI-H2073,cell viability,,7 days,,IC50,6.34 nM
c1ccc(-c2n[nH]cc2-c2ccnc3ccccc23)nc1,CTK1 (Candida albicans),"kinase binding, MIB/MS competition",Candida albicans lysate,1 µM,reference: DMSO,log2 fold change,-0.15
C[n+]1cccc2cc(/C=N/NC(=O)c3cccc(C(=O)N/N=C/c4ccc5c(ccc[n+]5C)c4)c3)ccc21,telomeric G4 DNA hybrid-2,FRET melting,,"1 µM, DNA 0.2 µM",,ΔTm,7 ± 1.1 °C
COc1ccc(C(=O)CCc2cc(C(CCc3ccc(O)cc3OC)c3ccc(O)cc3)c(O)cc2OC)cc1 (racemic),,,human blood,"10 µM, together with: A23187",,LTB4 level,2650 ± 1300 pg/mL
O=C(N/N=C/c1ccc2c(ccc[n+]2Cc2ccccc2)c1)c1cccc(C(=O)N/N=C/c2ccc3c(ccc[n+]3Cc3ccccc3)c2)c1,telomeric G4 DNA hybrid-2,FRET melting,,"1 µM, DNA 0.2 µM, together with: duplex DNA competitor 10 µM",,ΔTm,16 ± 0.6 °C
Cc1ncsc1-c1ccc(C(C)NC(=O)C2CC(O)CN2C(=O)C(NC(=O)CCCCCCCCCCN2CCCC(Nc3ncc(Cl)c(Nc4ccccc4S(=O)(=O)C(C)C)n3)C2)C(C)(C)C)cc1 (stereo not shown),22Rv1,"RNA-seq, item: SLC2A12 mRNA",,concentration not given,reference: DMSO,log2 fold change,-1.85
